# Published values gathered from unrelated publications.
# Compare with care: the assays were run in different laboratories.
# Target: SRSF protein kinase 3 (SRPK3, Homo sapiens, UniProt Q9UPE1)
SMILES,test,conditions,scale,endpoint,value
COc1ccc(NC(=O)Nc2ccc3c(c2)C(=O)N(C(C)CO)CC(C)C(CN(C)Cc2ccc4c(c2)OCO4)O3)cc1 (stereo not shown),"kinase activity, KinaseProfiler","0.03 µM, species human",baseline: control,remaining activity,95%
CC(C)c1ccc(NC(=O)Nc2ccccc2)cc1,"binding, KINOMEscan competitive binding",concentration not given,,inhibition,25%
CCN1CCN(Cc2ccc(C(=O)Nc3ccc(C)c(NCc4cnc5[nH]ccc5c4OC)c3)cc2C(F)(F)F)CC1,"binding, competition with immobilised ligand",1 µM,,remaining binding,98%
CNC1C[S+]2CC[S+]3CC[S+](C1)[Ru-4]321([N]=C=S)[n]2c3ccc(OC)cc3c3c4c(c5cc(F)c[n+]1c5c32)C(=O)NC4=O (stereo not shown),KinomeScan,0.1 µM,baseline: untreated,remaining binding,93%
Nc1ncc2c(n1)-c1c([nH]c3ccc(C4=CCOCC4)cc13)CCC2,"binding, competition with immobilised ligand",1 µM,,remaining binding,100%
C=CC(=O)N1CCc2ccc(-n3c(=O)ccc4cnc5ccc(-c6cnn(C)c6)cc5c43)cc21,KINOMEscan,1 µM,baseline: DMSO control,remaining binding,95%
COc1c(Cl)cccc1Nc1c(-c2ccncc2C#C[C@@]2(C)CCCN2C(=O)/C=C/CN(C)C)[nH]c2c1C(=O)NCC2,"binding, competition with immobilised ligand",3 µM,,remaining binding,100%
COc1cc(Nc2nc(C)cc(-c3cnn4nc(OC)ccc34)n2)cc(C(F)(F)F)c1,"binding, competition with immobilised ligand",1 µM,,remaining binding,65%
O=C(Nc1ccccc1)Nc1ccc(Cl)c(Cl)c1,"binding, KINOMEscan competitive binding",concentration not given,,inhibition,78%
COc1c(OCCCN2CCOCC2)ccc2c1N=C(NC(=O)c1cnc(N)nc1)N1CCN=C21,"kinase activity, inhibitor",1 µM,baseline: untreated control,remaining activity,106%
CC(=O)N1c2ccc(-c3ccc(CNC(=O)c4cn5cc(-c6cnc(N)nc6)nc(N6CCOCC6)c5n4)cc3)cc2CC[C@@H]1C,KINOMEscan,10 µM,,remaining binding,89%
O=C(Nc1ccccc1)Nc1ccc(Cl)cc1,"binding, KINOMEscan competitive binding",concentration not given,,inhibition,77%
CNS(=O)(=O)Nc1nccc(Cc2c(C)c3ccc(Oc4ncccc4F)cc3oc2=O)c1F,"binding, competition with immobilised ligand",10 µM,,remaining binding,96%
C=C1CCCCCCCCCC(CO)C1=O (stereo not shown),"cell-free assay, competition with immobilised ligand",10 µM,,remaining binding,100%
CN1CCN(Cc2ccc(NC(=O)c3cccc(C#Cc4cnc(N)c5ncccc45)c3)cc2C(F)(F)F)CC1,"cell-free assay, competition with immobilised ligand",0.5 µM,,remaining binding,65%
CN(C(=O)N(C)c1ccc(C#N)cc1)c1ccccc1,"binding, KINOMEscan competitive binding",concentration not given,,inhibition,0%
Cc1ccc(-c2c(/C=C(\C#N)C(=O)NC(C)C)n(CCCO)c3ncnc(N)c23)cc1,"cell-free assay, competition with immobilised ligand",1 µM,,remaining binding,72%
N#Cc1ccc(NC(=O)Nc2ccccc2)cc1,"enzyme activity, inhibitor, FRET",10 µM,,inhibition,51.5%
CC(C)=CC1OC(C)(C)C2C=C3C(=O)C(Cl)=CC(O)C3C3C(O)C4OC4C(=O)C132 (stereo not shown),"cell-free assay, competition with immobilised ligand",10 µM,,remaining binding,78%

# A few entries again:
SMILES,test,conditions,scale,endpoint,value
O=C(Nc1ccccc1)Nc1ccc(Cl)cc1,"binding, KINOMEscan competitive binding",concentration not given,,inhibition,77%
CC(C)c1ccc(NC(=O)Nc2ccccc2)cc1,"binding, KINOMEscan competitive binding",concentration not given,,inhibition,25%
